{"data": "Assay results of several laboratories", "target": "Platelet-derived growth factor receptor beta (PDGFRB, Homo sapiens, UniProt P09619)", "note": "Each line is one published result; not all experiments were run side by side.", "chain of UniProt P09619 (whole entry, looked up)": "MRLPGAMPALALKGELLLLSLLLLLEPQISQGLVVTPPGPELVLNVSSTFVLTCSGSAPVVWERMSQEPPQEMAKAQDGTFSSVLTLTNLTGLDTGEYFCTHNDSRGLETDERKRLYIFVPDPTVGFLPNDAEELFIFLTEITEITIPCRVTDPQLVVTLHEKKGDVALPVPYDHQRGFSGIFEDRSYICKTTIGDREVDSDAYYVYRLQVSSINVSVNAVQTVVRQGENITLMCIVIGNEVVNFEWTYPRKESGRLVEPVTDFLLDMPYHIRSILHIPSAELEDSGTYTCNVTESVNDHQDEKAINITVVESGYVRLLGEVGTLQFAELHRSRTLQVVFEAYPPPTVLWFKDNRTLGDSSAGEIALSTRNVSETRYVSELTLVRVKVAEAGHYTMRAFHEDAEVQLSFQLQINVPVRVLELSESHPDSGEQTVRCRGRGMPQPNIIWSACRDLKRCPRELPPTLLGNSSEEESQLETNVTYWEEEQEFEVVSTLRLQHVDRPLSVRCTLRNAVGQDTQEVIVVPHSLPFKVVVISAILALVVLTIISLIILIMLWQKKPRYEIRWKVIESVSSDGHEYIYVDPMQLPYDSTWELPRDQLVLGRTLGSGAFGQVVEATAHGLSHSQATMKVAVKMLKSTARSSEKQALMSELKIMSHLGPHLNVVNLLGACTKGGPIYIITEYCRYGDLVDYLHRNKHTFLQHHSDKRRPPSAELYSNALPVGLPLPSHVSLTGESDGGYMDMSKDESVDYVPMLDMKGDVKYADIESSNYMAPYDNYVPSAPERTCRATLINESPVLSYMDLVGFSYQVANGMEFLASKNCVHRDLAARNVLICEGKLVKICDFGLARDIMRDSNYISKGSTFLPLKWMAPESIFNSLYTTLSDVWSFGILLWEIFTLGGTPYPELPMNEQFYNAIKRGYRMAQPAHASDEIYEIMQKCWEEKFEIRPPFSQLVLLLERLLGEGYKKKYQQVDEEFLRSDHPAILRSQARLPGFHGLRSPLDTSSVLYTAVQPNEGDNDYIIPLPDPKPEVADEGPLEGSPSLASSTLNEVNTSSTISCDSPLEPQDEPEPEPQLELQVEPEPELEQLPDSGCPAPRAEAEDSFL"}
{"Compound": "C=CC(=O)N1CCC(COCC(=O)N2CCN(c3nc(-c4cnc(N)nc4C(F)F)nc(N4CCOC[C@@H]4C)n3)CC2)CC1", "effect on": "binding", "method": "competition with immobilised ligand", "tested at": "1 µM", "measurement": "remaining binding", "result": "100%"}
{"Compound": "Cc1cc([C@@H](C)Nc2ccccc2C(=O)O)c2nc(N3CCC(F)(F)CC3)c(C#N)c(=O)n2c1", "effect on": "binding", "method": "competition with immobilised ligand", "tested at": "10 µM", "measurement": "remaining binding", "result": "100%"}
{"Compound": "COc1cc(-c2cncc3c2CN(C)Cc2cc(N4CCNCC4)ccc2-3)cc(OC)c1OC", "effect on": "enzyme activity", "action": "inhibitor", "tested at": "1 µM", "measurement": "remaining activity", "result": "88%"}
{"Compound": "CCCCC(=O)Nc1ccc(-c2ccc3ncn(CCC)c(=O)c3c2)cn1", "effect on": "binding", "method": "competition with immobilised ligand", "tested at": "0.5 µM", "measurement": "remaining binding", "result": "100%"}
{"Compound": "CNc1ncc2c(/C=C/C(=O)N3CCC(OC)CC3)nn(Cc3cccc(C(F)(F)F)c3)c2n1", "effect on": "enzyme activity", "action": "inhibitor", "method": "radiometric", "tested at": "1 µM", "measurement": "remaining activity", "result": "99%"}
{"Compound": "FC(F)(F)Oc1cccc(-c2cnc3ccc(-c4ccncc4)nn23)c1", "effect on": "cell-free assay", "method": "competition with immobilised ligand", "tested at": "5 µM", "measurement": "remaining binding", "result": "11%"}
{"Compound": "Cc1cc(NC(=O)c2cccc(NC(=O)/C=C/CN(C)C)c2)ccc1Nc1nccc(-c2cccnc2)n1", "effect on": "binding", "method": "competition with immobilised ligand", "tested at": "1 µM", "measurement": "remaining binding", "result": "30%"}
{"Compound": "CN1CC(Oc2cnc(C#N)cc2-c2ccn3nc(NC(=O)C4CC4)cc3c2)C1", "effect on": "enzyme activity", "action": "inhibitor", "tested at": "1 µM", "measurement": "inhibition", "result": "10%"}
{"note": "For quick reference, copied from above:"}
{"Compound": "Cc1cc(NC(=O)c2cccc(NC(=O)/C=C/CN(C)C)c2)ccc1Nc1nccc(-c2cccnc2)n1", "effect on": "binding", "method": "competition with immobilised ligand", "tested at": "1 µM", "measurement": "remaining binding", "result": "30%"}
